Published values collected from several papers.
Every numbered part comes from another study and shows a few of its results, in no order. Positions count from the first letter of the parent shown.

Set 1
Target: Interferon regulatory factor 5, full length, phosphomimetic (IRF5, Homo sapiens, UniProt Q13568-2, residues 1-514, K96S/S451D/S453D/S456D/S462D)
Technique: protein-binding microarray
Form: double-stranded DNA, one strand shown
Matrix: in vitro
Concentration: 250 nM
Setting: 60-bp whole probe
Added: salmon DNA 0.4 mg/ml
Relative to: random background probes
Reading: higher = stronger binding
Shared flanks, not repeated: GCCTAGCAC … GTCTTGATTCGCTTGACGCTGCTG
Strand | log fluorescence [z-score]
GACGGTTTCCTTTCCCTGATGTGCTAG | 1.22
GACGAACTGGGGTATCGAGCCGTGCTA | -0.259
CCCACTTTCACTTCTCCCTTGTGCTAG | 8.1
TCACACTCCAGTCTGGGACTGTGCTAG | -0.267
TTAGGACTGGGACGGGGTTAGTGCTAG | -0.215
TCATGTTTGGTTCTTATACTGTGCTAG | 0.725
TTAGGTATAGGGTTTCGGTTAGTGCTA | 6.3
TTCGGACTGGACACTGGGTTAGTGCTA | -0.41
TCATTAATGCTTCTGGAACTGTGCTAG | 0.252
TCAAGAAAAAGAAAAAAAACTGTGCTA | 0.671
GACGTTATCGGGTTTCGGGACGTGCTA | 4.34
GACGGACTGCTTATCCTTACGTGCTAG | -0.393
GACGGACTCGGTCTCGGGACGTGCTAG | -0.559

Set 2
Target: RING finger protein unkempt homolog, zinc fingers 1-6, GST-SBP tag (UNK, Homo sapiens, UniProt Q9C0B0, residues 30-357)
Technique: RNA Bind-n-Seq
Form: RNA
Matrix: in vitro
Concentration: not given
Setting: RNA with constant flanks, human and mouse sites, ends assumed
Relative to: input RNA pool
Reading: higher = stronger binding
Target sequence (chain): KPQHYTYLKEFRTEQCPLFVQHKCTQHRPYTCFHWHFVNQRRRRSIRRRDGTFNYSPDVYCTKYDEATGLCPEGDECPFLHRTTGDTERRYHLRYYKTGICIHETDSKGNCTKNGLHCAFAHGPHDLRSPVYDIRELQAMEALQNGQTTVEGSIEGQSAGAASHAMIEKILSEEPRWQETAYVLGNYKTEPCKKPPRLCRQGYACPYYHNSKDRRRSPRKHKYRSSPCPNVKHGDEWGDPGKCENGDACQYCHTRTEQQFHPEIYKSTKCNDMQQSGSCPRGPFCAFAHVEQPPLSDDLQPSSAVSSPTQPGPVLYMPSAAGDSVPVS
Strand | bound/input enrichment
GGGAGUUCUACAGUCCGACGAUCGAAUCUUCACCAACCACAUUACUCACUACAAAGAAAAAUAUUGGACGUUUCCAUCCCUAUACCAGAUAUGAAAAUAUAACUUUCAAUUGCUGCAAUCACUGCCAGGGGGAGCUCAUUGCUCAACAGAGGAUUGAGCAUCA | 0.753 ratio
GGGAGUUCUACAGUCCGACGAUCGGGUGGGGGUUGUCAUUGCCAAUUGAGCUGCUGAUUCUUAUGAAUCACAUUCAGAACUCGCAUAGGGUUGACACUGUAAGGGGUGGGGAAAUCUAGCUAUUUUUUUUUCCCCAGCCCAUUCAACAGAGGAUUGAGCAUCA | 3.96 ratio
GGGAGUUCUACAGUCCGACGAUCAUCUAAGAUCCUUCAGCGCCCAGUCCUGUGAUCUCCCUUGGCUAAUAACGAACUGUAAGGAUGCCAGCAGCUCAUGAAGAAAGGGAGACUUCCAAAAGAGCCUGCGUUGUUUGAUUCAGCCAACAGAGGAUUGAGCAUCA | 0.116 ratio
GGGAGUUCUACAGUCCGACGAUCCAAUUACUGGAAAAUAAAAGGAGUUCAUGUAGUUUUUGUCCAGGCUUGAGUCACCAUGAGUAGUAGUUUAGGAAAAGAAAAAGACUCUAAAGAAAAAGAUCCCAAAGUACCAUCAGCCAACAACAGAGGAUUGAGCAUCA | 2.09 ratio
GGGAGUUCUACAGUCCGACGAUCAAUACUUGGCAGUUCAAUUUCAAAUUUAACCUUACAGAGGACAUGUACUCCCAGGAUUCCAUAGAUCUCCUUGCUAACUCAGGACUACAGUUUCAGAAGCAUGAAGAGGAAGGGAUUGACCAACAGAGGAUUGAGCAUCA | 0.368 ratio
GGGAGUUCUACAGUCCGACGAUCGAAGCCAUGAGUUAUGCUGAGGUCAUGAGGCUGGUGAAAGGCAUGAACUUCUCAGUGGUAGUGUUCGACACAGCACCCACCGGCCAUACACUCAGGCUCCUGAACUUCCCGACCAUCGUGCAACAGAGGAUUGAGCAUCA | 0.0946 ratio
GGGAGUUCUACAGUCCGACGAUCUCAGGUCUUAUAAUUUCAGAUGUUGUUUUUUAAGGGAAAUUGACCAUUUCACUAGAGGAGUUGUGCUGGUUUUUAAAUGUGCAUCAAGAAAGACUACUGAAAAGUAUUAUUUUGUAACUACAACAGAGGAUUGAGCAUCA | 0.247 ratio
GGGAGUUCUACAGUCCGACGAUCUGUUACCAAAGGAAUCAGCGUGGUCCCCAGAUGCCUUUGAUAUUUCUCUAUGUGGUUGAUACUUGCAUAGAAGAUGAGGAUUUGCAGGCUCUGAAGGAGUCCAUGCAGAUGUCGUUGAGCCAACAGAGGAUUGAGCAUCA | 0.183 ratio
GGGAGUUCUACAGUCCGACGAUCUCCAGUGGUUUUGGCGGCAAGUAUGGCGUGCAGGCCGACCGAGUAGACAAGAGCGCGGUGGGCUUCGACUACCAGGGCAAGACGGAGAAGCACGAGUCACAGAGAGAUUACUCCAAAGGUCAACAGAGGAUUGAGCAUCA | 0.0984 ratio
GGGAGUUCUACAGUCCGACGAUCCGCUGCCUCGGUGCAGGACGAGCGGAGGGGCUUUUGCAGCGGCCGUCGCCGCGGGAGGAGGGGGUUGAGCUGGCUCCGGAGUUGGCCAAAGAAGGUGGGCAUUUCUCGCUUCUCCUCGCCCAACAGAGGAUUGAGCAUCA | 0.112 ratio
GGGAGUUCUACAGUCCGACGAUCAAGUUGCAACACAUCAACCCAUUAUUGCCUGCCUGCCUUAACAAAGAGGAGAGCAAAACCUUUGUUUCAAGUUUCAUGUCCGAAUUGUCUCCAGUCAGAGCAGAACUUCUUGGGUUCCUUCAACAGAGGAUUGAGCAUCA | 0.184 ratio

Set 3
Target: RNA binding protein fox-1 homolog 2, RRM domain, GST-SBP tag (RBFOX2, Homo sapiens, UniProt O43251-10, residues 100-194)
Technique: RNA Bind-n-Seq
Form: RNA
Matrix: in vitro
Concentration: 365 nM
Setting: natural RNA segment, single round, ends assumed
Relative to: no-protein control
Reading: higher = stronger binding
Target sequence (chain): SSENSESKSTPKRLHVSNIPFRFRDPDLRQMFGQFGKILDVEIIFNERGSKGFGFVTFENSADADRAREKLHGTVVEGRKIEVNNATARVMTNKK
Strand | RBNS enrichment (R)
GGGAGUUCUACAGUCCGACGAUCACUGAGAAGAUGUCAGUGGUGCUCGGUUCUGCCAGCUGUCAGCGGGCCCGGCUGUUAGCACCGUGCUGACUUUCCAUUGGAGACUUGAGUUGGAGAGAGGUGGGUCCUAUUGGAAUUCUCGGGUGCCAA | 0.28
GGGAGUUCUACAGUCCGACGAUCGACAUGUGCAGAUGAAAUGUCAAUAUAAGAAAAAUCAAGGUAUUUGGGAAACAUGGGCAUAAUCAGGUAGUUUUGCUAAAAUUCCUCUUCCUUGGUCUACAUAAAGAAGAUGGAAUUCUCGGGUGCCAA | 1.1
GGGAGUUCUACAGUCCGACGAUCUGUUAUUAUUAUUGUUAUUAUUAACAAUCUUGGGUGGGUAGUAGGAGAGCAAAAAGUAUGAAUGGGAUGGAGCUAAGAAGUCUGAAUACUUAAUGAAAUGGACUUUUUGGUGGAAUUCUCGGGUGCCAA | 2.18
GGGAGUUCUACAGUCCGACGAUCAGCAAACAACCCCUGCCCGUGGGCCAAUCUACUUGAAGUUACUCGGACAAAGACCCCAAAGUGGGGCAACAACUCCAGAGAGGCUGUGGGAAUCUUCAGAACCCCCCUGUUGGAAUUCUCGGGUGCCAA | 0.448
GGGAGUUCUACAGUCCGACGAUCCUUCCUUCCCAGAGAAAAUGGAUCCUCUAUGUGGGAUUGUAGGAAAGUGACUGGGUGUGCCAAAAAUGCCCAGGGUUCUGCCCUCAAUACUAUAUUUGAUGGGGCCAAGAUGGAAUUCUCGGGUGCCAA | 0.291
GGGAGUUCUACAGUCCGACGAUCCCAUGGAGAGGAGAGGCACUGCCGGAGCCCUUGCCAGAUCUCCCUCCCUCUCUCCGUGCAGUAGCUGUGUGUCCGAGGUCAGUGUGCGGAAUCACAGCCAAGGACGUGAAUGGAAUUCUCGGGUGCCAA | 0.627
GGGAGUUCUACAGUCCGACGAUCUAUAUCUUUUCCCUGUACUCCUCAUGUACAACCAAAGAACAUACAUUAUGAAAAUUGUAUUAUAAUAUCUGGAAACACAACAUUUUCCUCUGGCAGGUGACUUUUGUACGUGGAAUUCUCGGGUGCCAA | 0.442
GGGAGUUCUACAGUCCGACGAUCAUUGGGACCCCAUACCGUUAGCCCUUGUAUGUAUACCAACACUGCCAAAGUAAAACAUUAGGUCAGGCAUGGUGGCUCAGGCCUGUAAUCCCAGCAUUUUGGGAGGCUGAUGGAAUUCUCGGGUGCCAA | 0.562
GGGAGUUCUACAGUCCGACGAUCUGGUCUGGCCACGUUUGUUAAAUCCUUAUACUGAUAUUCUUCUAAAGAGUAAAUCUCAUCAUUUUUCCAGACAAAUUUUGAGGGGUUUCUCUGUUUUGUGGACAGGCAGCUGGAAUUCUCGGGUGCCAA | 0.603
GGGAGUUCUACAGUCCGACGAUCUUGGCCGCCAGUUCCGUUCUCCUCACGGGCCGAACGGAACAAGGGGUCCAGCUUGCGGGGGACCCUCCCCAGCCCAUUCCUGCUGUCAAACAAACAAAACCUUGCAAAGCUGGAAUUCUCGGGUGCCAA | 0.204
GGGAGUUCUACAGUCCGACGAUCUGCUGGAAUUGAAACAAUACUUUAAUACCGUUUAAGUUUGUUUCCUUUUUUUUUUUCCUCUUUUUUUUUUCUUUCACCAAGAAAAGAAAAAAGUAAACUAAAAUACAAAAUGGAAUUCUCGGGUGCCAA | 0.454
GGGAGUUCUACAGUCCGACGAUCUGAAAAAGUACCCUCUUUUUCAUUUCCUAUUGCAGUGGUCACAGCUAAUAGUGUCUGAACAUGGUUCAAGAAUAAGAGAUUCCAUGUAGCAUUUUCUUUAUUAUUUUCAUUGGAAUUCUCGGGUGCCAA | 1.18

Set 4
Target: Histone acetyltransferase KAT6A, winged helix 2, GST fusion (KAT6A, Homo sapiens, UniProt Q92794, residues 85-181)
Technique: protein binding microarray
Form: double-stranded DNA, one strand shown
Matrix: in vitro
Concentration: not given
Setting: 8-mer, flanks averaged, mean of 2 arrays, mostly near background
Relative to: not given
Reading: higher = stronger binding
Construct (chain): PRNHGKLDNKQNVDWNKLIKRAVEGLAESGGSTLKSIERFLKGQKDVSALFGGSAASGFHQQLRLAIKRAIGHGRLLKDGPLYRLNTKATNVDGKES
Strand | E-score
GTTCATAA | -0.104
CTCCAAAA | 0.0614
TAAGAGTA | 0.0102
ATACGAAC | 0.15
AGCTTTAG | -0.0301
CAGAAACA | -0.0221
ACTAAGGG | -0.111
AAGGCCAC | -0.101
CCAAACAA | 0.167
CCTAGCGC | 0.0577
ATCGAAAG | 0.00971
CCGCATGC | 0.0935
AGAAAACA | 0.0464

Set 5
Target: CCNB2, cyclin fold, Cln2 fusion (human)
Technique: yeast growth competition, sequencing
Matrix: yeast
Setting: strong parent motif
Relative to: not given
Reading: higher = stronger binding
Starting sequence: MICAL3 docking peptide (human); LQLRRQLSFSEDS; partner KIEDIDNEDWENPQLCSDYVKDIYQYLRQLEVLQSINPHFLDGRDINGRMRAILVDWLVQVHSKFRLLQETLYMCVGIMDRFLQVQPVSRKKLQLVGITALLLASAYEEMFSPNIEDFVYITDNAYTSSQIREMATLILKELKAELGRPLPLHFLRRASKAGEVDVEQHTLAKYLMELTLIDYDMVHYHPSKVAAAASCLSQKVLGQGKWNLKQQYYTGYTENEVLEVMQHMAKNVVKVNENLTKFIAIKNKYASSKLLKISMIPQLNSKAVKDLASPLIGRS
Variant | normalised enrichment score
S8A | 0.582
S8C | 1.31
L7T | 0.191
Q6W | 0.494
L7N | -0.164
D12M | 2.99
E11T | 1.85
R4D | -0.0235
R5W | 0.326
Q6P | -0.361
R5F | 0.362
S8W | 0.946
R5M | 0.441
